# Assay results collected from several papers.
# Numbered parts are unrelated; each lists some results of a single study.

# Set 1
# Target: Transcriptional repressor CTCF (CTCF, Homo sapiens, UniProt P49711, residues 1-727, full length assumed)
# UniProt P49711, sequence (whole entry, looked up): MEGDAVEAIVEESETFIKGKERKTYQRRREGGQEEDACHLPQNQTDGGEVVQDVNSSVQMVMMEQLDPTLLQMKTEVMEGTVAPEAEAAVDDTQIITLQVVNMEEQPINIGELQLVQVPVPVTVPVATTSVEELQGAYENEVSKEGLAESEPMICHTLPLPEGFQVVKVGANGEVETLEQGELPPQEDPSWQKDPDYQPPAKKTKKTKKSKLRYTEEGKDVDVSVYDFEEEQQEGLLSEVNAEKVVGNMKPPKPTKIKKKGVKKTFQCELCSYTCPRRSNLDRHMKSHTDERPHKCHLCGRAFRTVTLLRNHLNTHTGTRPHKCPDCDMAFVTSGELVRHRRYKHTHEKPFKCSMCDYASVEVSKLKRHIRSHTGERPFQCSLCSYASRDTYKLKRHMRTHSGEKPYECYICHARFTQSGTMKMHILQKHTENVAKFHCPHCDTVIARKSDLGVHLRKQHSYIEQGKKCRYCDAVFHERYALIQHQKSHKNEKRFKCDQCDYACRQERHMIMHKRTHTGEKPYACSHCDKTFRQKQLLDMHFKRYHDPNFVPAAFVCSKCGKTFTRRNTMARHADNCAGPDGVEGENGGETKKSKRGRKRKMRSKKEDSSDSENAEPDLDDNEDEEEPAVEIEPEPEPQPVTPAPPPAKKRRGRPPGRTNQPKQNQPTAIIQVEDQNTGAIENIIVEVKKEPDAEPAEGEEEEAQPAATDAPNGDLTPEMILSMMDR
# Method: protein-binding microarray
# Molecule type: double-stranded DNA, one strand shown
# Matrix: in vitro
# Tested at: not given
# Setting: k-mer, scored over probes, only values ≥0.25
# Reading: higher = stronger binding
Strand,E-score
ACAAAACA,0.276
ATATACTA,0.268
AAAGCGCC,0.323
CCCCACCC,0.352
AAATGGTA,0.317
GCTTTTTA,0.335
AATATGCG,0.337
TAGCGCTA,0.307

# Set 2
# Target: Ras GTPase-activating protein-binding protein 1, RRM domain (G3BP1, Homo sapiens, UniProt Q13283)
# UniProt Q13283, sequence (whole entry, looked up): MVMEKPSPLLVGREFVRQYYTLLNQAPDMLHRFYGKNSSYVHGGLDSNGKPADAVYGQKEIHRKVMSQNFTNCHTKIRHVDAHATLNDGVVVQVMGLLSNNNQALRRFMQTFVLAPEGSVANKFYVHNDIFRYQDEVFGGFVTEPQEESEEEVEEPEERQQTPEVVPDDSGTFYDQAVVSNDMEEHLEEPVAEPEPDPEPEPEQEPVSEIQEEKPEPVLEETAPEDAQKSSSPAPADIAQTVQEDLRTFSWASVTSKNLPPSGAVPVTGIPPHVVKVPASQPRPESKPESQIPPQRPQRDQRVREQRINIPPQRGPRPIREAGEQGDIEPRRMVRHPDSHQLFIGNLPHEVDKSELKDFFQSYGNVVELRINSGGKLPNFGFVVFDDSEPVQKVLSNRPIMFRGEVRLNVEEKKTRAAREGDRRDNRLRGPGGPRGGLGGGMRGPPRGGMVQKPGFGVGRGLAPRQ
# Method: RNA Bind-n-Seq
# Molecule type: RNA
# Matrix: in vitro
# Tested at: 1 µM
# Setting: whole 134-nt RNA, ends assumed
# Together with: 150 mM KCl
# Reference: input library
# Reading: higher = stronger binding
Strand,log2 enrichment
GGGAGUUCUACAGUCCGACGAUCGUCCUGUGCUACACAUCGUAUGUACCGAAUCGGGGAAAAAAAGGGGUGGGGAAAGGGGAAAGUAUUAUGUUACGCCGUUCGGAUCUGCACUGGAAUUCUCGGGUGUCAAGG,0.921
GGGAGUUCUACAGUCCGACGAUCCCCAGACAACACGCACCCACACAGACACAGAGGGAAGGGGUUGGGAUGGGGACAGGGUGCACAGCAGGGCGGGGUAGGACCCCAGCCCCUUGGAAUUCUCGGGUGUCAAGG,-0.0361
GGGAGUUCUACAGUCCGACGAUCUCAAGUCCUGUGCUACACAUCGUAUGUACCGAAUCGGUUUUUGGAGGUUUUUGGAAAGUAUUAUGUUACGCCGUUCGGAUCUGCACUUCCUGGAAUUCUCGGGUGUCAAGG,-0.191
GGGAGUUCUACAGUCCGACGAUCAGUCCUGUGCUACACAUCGUAUGUACCGAAUCAAACCCCCAAAUUUAAACCCCCAAAAAAGUAUUAUGUUACGCCGUUCGGAUCUGCACUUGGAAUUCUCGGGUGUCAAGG,-0.139
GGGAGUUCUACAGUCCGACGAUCCCUGUGCUACACAUCGUAUGUACCGAAUCGGAAAAAAAGGGAAAAAAAGGAAAAAAAGGGGAAAGUAUUAUGUUACGCCGUUCGGAUCUGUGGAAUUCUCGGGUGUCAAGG,0.0349
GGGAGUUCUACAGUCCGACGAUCUGAGAGGUGGAUUUUGUUUAUUUUUUUAGCUCAUUUCCAGGGGUGGGAAUUUUUUUUUAAUAUGUGUCAUGAAUAAAGUUGUUUUUGAAAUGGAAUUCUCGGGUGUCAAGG,1.25
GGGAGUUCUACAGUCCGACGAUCUAACUUUAGAGGAGGAUCUGAUGGAUAUGGCAGUGGACGUGGAUUUGGGGAUGGCUAUAAUGGGUAUGGAGGAGGACCUGGAGGUAGCAAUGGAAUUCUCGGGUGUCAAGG,-0.401
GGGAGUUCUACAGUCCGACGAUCUCCUCAAGUCCUGUGCUACACAUCGUAUGUACCGAAUCGGGUGGGUGGUGGAAAGUAUUAUGUUACGCCGUUCGGAUCUGCACUUCCAGCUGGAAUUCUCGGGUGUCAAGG,-0.146
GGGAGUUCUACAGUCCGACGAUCCUGUGCUACACAUCGUAUGUACCGAAUCGGGGUUUUUUGGGGUUUUUUGGGGUUUUUUGGGGAAAGUAUUAUGUUACGCCGUUCGGAUCUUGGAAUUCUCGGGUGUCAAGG,0.705

# Set 3
# Target: Sal-like protein 4, full length isoform A (SALL4, Homo sapiens, UniProt Q9UJQ4, residues 1-1053)
# UniProt Q9UJQ4, sequence (whole entry, looked up): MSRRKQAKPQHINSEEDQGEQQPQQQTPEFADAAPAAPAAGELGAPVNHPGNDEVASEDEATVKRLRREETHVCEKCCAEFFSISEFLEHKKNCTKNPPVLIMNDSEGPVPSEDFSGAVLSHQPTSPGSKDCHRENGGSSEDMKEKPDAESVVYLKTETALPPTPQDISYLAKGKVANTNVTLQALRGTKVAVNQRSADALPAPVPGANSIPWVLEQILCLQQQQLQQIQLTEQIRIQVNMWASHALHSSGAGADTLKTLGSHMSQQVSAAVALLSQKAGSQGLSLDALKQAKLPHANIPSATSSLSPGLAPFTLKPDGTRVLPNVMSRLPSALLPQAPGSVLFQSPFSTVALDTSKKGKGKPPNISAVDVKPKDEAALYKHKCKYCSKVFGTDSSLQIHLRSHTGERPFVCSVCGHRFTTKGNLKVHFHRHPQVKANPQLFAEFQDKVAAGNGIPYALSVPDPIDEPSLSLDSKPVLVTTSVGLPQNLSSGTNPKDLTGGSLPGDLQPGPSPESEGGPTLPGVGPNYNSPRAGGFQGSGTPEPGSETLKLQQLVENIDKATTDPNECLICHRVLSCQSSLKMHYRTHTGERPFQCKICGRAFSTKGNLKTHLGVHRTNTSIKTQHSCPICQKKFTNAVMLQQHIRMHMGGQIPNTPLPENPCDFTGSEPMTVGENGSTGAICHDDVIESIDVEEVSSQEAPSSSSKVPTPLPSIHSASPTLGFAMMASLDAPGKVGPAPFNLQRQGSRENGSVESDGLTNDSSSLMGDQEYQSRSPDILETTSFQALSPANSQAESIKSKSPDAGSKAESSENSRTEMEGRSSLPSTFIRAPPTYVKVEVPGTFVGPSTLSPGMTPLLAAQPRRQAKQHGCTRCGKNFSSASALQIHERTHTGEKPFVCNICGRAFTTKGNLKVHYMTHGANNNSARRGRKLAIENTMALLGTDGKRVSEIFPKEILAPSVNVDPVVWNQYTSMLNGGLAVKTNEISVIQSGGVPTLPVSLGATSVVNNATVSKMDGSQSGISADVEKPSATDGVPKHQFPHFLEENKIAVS
# Method: universal PBM
# Molecule type: double-stranded DNA, one strand shown
# Matrix: in vitro
# Tested at: 600 nM
# Setting: 8-mer, flanks averaged, mean of replicates
# Reading: higher = stronger binding
Strand,E-score
ACGTTGTA,0.0709
AATCGTGC,0.073
CGTCCAGA,-0.171
GGACAGGA,-0.244
TAACAGCA,0.224
AAAAGGGT,0.12
AACAAGAA,0.286
CACGGGGG,-0.336
CACGTCAA,-0.0132
AACCCGTC,-0.17
CAGGTTAA,0.0331
CACACCCA,-0.106
CCAAACAA,0.0372

# Mixed results
Molecule,target,assay,system,conditions,scale,quantity,value
"PhoQ, residues 284 288 289 292 302 303 SIHMAM","PhoP, residues 12 14 15 18 19 GQALL (Escherichia coli, UniProt P23836)","Sort-seq, measured: YFP reporter",E. coli,"PhoQ-PhoP variant library, together with: 10 µM Mg2+","reference: high Mg2+ state, higher = stronger signaling",fold induction,16.8

# A few entries again (set 3):
Strand,E-score
CACGTCAA,-0.0132
AACCCGTC,-0.17
CAGGTTAA,0.0331
CACACCCA,-0.106
